Assay results gathered from unrelated publications.
Protocols differ between the studies behind these lines. ± gives the spread as reported.

| Structure (SMILES) | test | test system | conditions | measurement | result |
| --- | --- | --- | --- | --- | --- |
| COc1ccc(S(=O)(=O)N(C)/N=C/c2ccc(C#N)cc2)cc1OC |  | buffer | pH 2, 37 °C | chemical stability | stable |
| CCC(=O)NC1CN(CCCCC2CCN(CC(=O)N3c4ccccc4NC(=O)c4ccccc43)CC2)CCN(CCCOc2nsnc2C2=CCCN(C)C2)C1 (stereo not drawn) |  | PBS | 100 µM, 48 h, pH 7.4, 22 °C | chemical stability | stable |
| CC1=CC(C)=[O+][Pt-2]([NH3+])([NH3+])[O]1.CC1=CC(C)=[O+][Pt-2]([NH3+])([NH3+])[O]1.O=S(=O)([O-])[O-] (stereo not drawn) | 1H NMR | PBS | up to 25 d, pH 7.4, 37 °C | chemical stability | no effect |
| Nc1nc2c(ncn2COCCOC(=O)[C@@H](N)CO)c(=O)[nH]1 |  | DPBS buffer | 0.02 mM, pH 7.4, 34 °C | chemical hydrolysis half-life | 29 ± 3 h |
| C[C@@H](O)[C@H](NC(=O)[C@@H](NC(=O)[C@@H](N)CCCCN)[C@@H](C)O)C(=O)N[C@@H](CCCCN)C(=O)N[C@@H](CO)C(=O)O |  | 10 mM HEPES buffer | pH 7.4 | chemical stability | stable |
| NC(=O)CN(Cc1ccccc1)C(=O)CN(CCOc1cc(-c2ccccn2)nc(-c2ccccn2)c1)C(=O)CNCc1ccccn1 | UV-Vis | PBS | 100 µM, up to 72 h, pH 7.4, 37 °C | chemical stability | stable |
| C[C@H](N)C(=O)OCCOCn1cnc2c(=O)[nH]c(N)nc21 |  | DPBS buffer | 0.02 mM, pH 7.4, 34 °C | chemical hydrolysis half-life | 2.9 ± 0.1 h |
| CC1=CC(c2ccccc2)=[O+][Pt-2]([NH3+])([NH3+])[O]1.O=[N+]([O-])[O-] (stereo not drawn) | 1H NMR | PBS | up to 25 d, pH 7.4, 37 °C | chemical stability | no effect |
| COC(=O)c1ccc(/C=N/N(C)S(=O)(=O)c2ccc(OC)c(OC)c2)cc1 |  | buffer | pH 2, 37 °C | chemical stability | stable |

Repeated from above:
| Structure (SMILES) | test | test system | conditions | measurement | result |
| --- | --- | --- | --- | --- | --- |
| NC(=O)CN(Cc1ccccc1)C(=O)CN(CCOc1cc(-c2ccccn2)nc(-c2ccccn2)c1)C(=O)CNCc1ccccn1 | UV-Vis | PBS | 100 µM, up to 72 h, pH 7.4, 37 °C | chemical stability | stable |
